Measurements from different studies.
“And” joins repeats or separate records; there may be more than shown. ± gives the spread as reported.

With `N#[11C]c1ccc(-c2csc(NN=C3CCCC3)n2)cc1` the radioactivity uptake was 1.15 ± 0.6 %ID/g (C57BL/6 mice, male, muscle; intravenous, 3 MBq, 30 min).
With `NC1CCN(C(=O)Oc2ccc(C3CCCC4(C3)OOC3(O4)C4CC5CC(C4)CC3C5)cc2)CC1` (racemic) the Cmax was 1520 ng/mL (male ICR mice, plasma; intravenous, 10 mg/kg).
`CSCC[C@H](NC(=O)CNC(=O)[C@H](CCCCN)NC(=O)[C@H](CC(C)C)NC(=O)[C@@H]1CCCN1C(=O)[C@H](CO)NC(=O)[C@H](Cc1c[nH]cn1)NC(=O)[C@H](Cc1c[nH]c2ccccc12)NC(=O)[C@H](CCCNC(=N)N)NC(=O)[C@H](CC(C)C)NC(=O)[C@H](CCCNC(=N)N)NC(=O)[C@H](Cc1c[nH]c2ccccc12)NC(=O)[C@H](CS)NC(=O)CCCCCNC(=O)CN1CCN(CC(=O)O)CCN(CC(=O)O)CCN(CC(=O)O)CC1)C(=O)O` [copper-64 labelled] gave a tissue uptake of 2.8 ± 0.29 %ID/g (PET; C57BL/6J mice, B16-F10 tumour, kidney; intravenous, 38 h).
`O=C(O)/C=C\c1ccc2occc2c1O[C@@H]1O[C@H](CO)[C@@H](O)[C@H](O)[C@H]1O` has a Tmax of 2.83 ± 1.89 h (rat, plasma; oral, 500 mg/kg Eu + 217 mg/kg Pc extract, dosed as combined Eu and Pc extracts).
The survival of `N=C(N)NCCC[C@@H](NC(=O)[C@H](N)Cc1c[nH]c2ccccc12)C(=O)N[C@H](CCCCN)C(=O)N[C@H](Cc1c[nH]c2ccccc12)C(=O)N[C@H](CCCNC(=N)N)C(=O)N[C@H](CCCCN)C(=O)N[C@H](Cc1c[nH]c2ccccc12)C(=O)N[C@H](CCCNC(=N)N)C(=O)N[C@H](CCCCN)C(=O)N[C@H](Cc1c[nH]c2ccccc12)C(=O)N[C@H](CCCNC(=N)N)C(=O)N[C@H](CCCCN)C(N)=O` is reported as 75% (mouse; intraperitoneal, 40 mg/kg single dose, day 2).
With `COc1cnc2cccc(N3CCc4c(cc(Cn5ccnc5)cc4-c4cn(C)nc4C(F)(F)F)C3=O)c2c1` the body weight was 22.3 g and 22.8 g and 23.6 g and 24.2 g and 22.5 g and 20.6 g and 23.2 g and 25.7 g (BALB/c nude mice, MV4-11 xenograft; intraperitoneal, 100 mg/kg, day 14).
For `C#Cc1c(F)ccc2cc(O)cc(-c3ncc4c(N5CC6CCC(C5)N6C(=O)OC(C)OC(=O)C(C)C)nc(OC[C@@]56CCCN5C[C@H](F)C6)nc4c3F)c12` (some centres unmarked), the t1/2 was 0.245 h (item: prodrug; mouse whole blood; 1 µM).
For `CN1Cc2cc(Cl)ccc2-n2c(nnc2C2CCN(c3cccc([18F])n3)CC2)C1`, the tissue uptake was 7.85 ± 4.39 %ID/g (C57BL/6 mouse male, pancreas; intravenous, dose not given, 30 min, added: blocking agent 10 mg/kg).
The CLint of `O=C(CN1C(=O)C2(CCN(C(=O)c3ccc4[nH]ncc4c3)CC2)c2c(Br)cccc21)NCC(F)(F)F` is reported as 30 µL/min/mg protein (mouse liver microsomes).
`CC(CCC(=O)NCC(=O)O)C1CCC2C3CCC4CC(OC5OC(C(=O)O)C(O)C(O)C5O)CCC4(C)C3CC(O)C12C` (centres unmarked) — result for “glucuronide to parent ratio”: 0.593 (men, T/T genotype, plasma; dose not given, geometric mean).
With `CC[C@H](C)[C@H](NC(=O)[C@H](CCCCN)NC(=O)CNC(=O)[C@H](CC(C)C)NC(=O)[C@H](Cc1ccccc1)NC(=O)[C@H](CCCCN)NC(=O)[C@H](CO)NC(=O)[C@H](Cc1ccccc1)NC(=O)[C@H](Cc1c[nH]c2ccccc12)NC(=O)[C@H](CCC(N)=O)NC(=O)[C@@H](NC(=O)[C@H](Cc1ccccc1)NC(=O)CCCCCNC(=O)CN1CCN(CC(=O)O)CCN(CC(=O)O)CCN(CC(=O)O)CC1)C(C)C)C(=O)N[C@@H](CCC(=O)O)C(=O)N1CCC[C@H]1C(=O)N[C@@H](CC(=O)O)C(=O)N[C@H](C(=O)N[C@@H](CO)C(=O)N[C@@H](CCC(N)=O)C(=O)N[C@H](C(=O)N[C@@H](CCC(N)=O)C(=O)N[C@@H](CC(=O)O)C(=O)N1CCC[C@H]1C(=O)N[C@@H](CC(N)=O)C(=O)N[C@@H](CC(=O)O)C(=O)N[C@@H](CCC(N)=O)C(=O)N[C@@H](Cc1ccc(O)cc1)C(=O)N[C@@H](CCC(=O)O)C(=O)N1CCC[C@H]1C(=O)N[C@@H](Cc1ccccc1)C(=O)O)C(C)C)C(C)C` [copper-64 labelled] the tissue uptake was 0.67 ± 0.06 %ID/g (C57BL/6 mice, male, naive, skeletal muscle; 24 h).
With `C/C(=N\OCCCN1CCCCC1)c1ccc(C(F)(F)F)cc1` the AUC(0-t) was 8720 ± 245 ng·h/mL (mouse, plasma; oral, 100 mg/kg twice daily, day 1).
The AUMC(0-inf) of `CC[C@H](C)[C@H](NC(=O)CNC(=O)[C@H](CCSC)NC(=O)[C@H](CCC(N)=O)NC(=O)[C@H](C)NC(=O)[C@H](CCC(N)=O)NC(=O)[C@@H](NC(=O)[C@H](CC(C)C)NC(=O)[C@H](C)NC(=O)[C@H](CO)NC(=O)[C@H](CCSC)NC(=O)[C@H](CCC(=O)O)NC(=O)[C@H](CC(C)C)NC(=O)[C@H](Cc1ccc(O)cc1)NC(=O)[C@H](CO)NC(=O)[C@H](CCC(=O)O)NC(=O)[C@H](CCC(N)=O)NC(=O)[C@H](CCCNC(=N)N)NC(=O)[C@H](CCCCN)NC(=O)[C@H](CC(=O)O)NC(=O)[C@H](CC(C)C)NC(=O)[C@H](CC(N)=O)NC(=O)[C@H](Cc1ccccc1)NC(=O)[C@H](CCC(=O)O)NC(=O)[C@H](CCCCN)NC(=O)[C@@H](NC(=O)[C@H](CC(C)C)NC(=O)[C@H](CCC(=O)O)NC(=O)[C@H](CCC(=O)O)NC(=O)[C@@H](NC(=O)[C@@H](NC(=O)[C@H](CCCNC(=N)N)NC(=O)[C@H](CCCCN)NC(=O)[C@H](C)NC(=O)[C@H](Cc1ccccc1)NC(=O)[C@H](CCC(=O)O)NC(=O)[C@H](CCC(=O)O)NC(=O)[C@H](CC(C)C)NC(=O)[C@@H](N)CO)C(C)C)C(C)C)C(C)C)[C@@H](C)CC)C(=O)N[C@@H](CO)C(=O)N[C@@H](CCC(=O)O)C(=O)N[C@@H](CCCNC(=N)N)C(=O)N[C@H](C(=O)N[C@H](C(=O)N[C@@H](CCC(=O)O)C(=O)N[C@H](C(=O)N[C@H](C(=O)N[C@@H](CC(C)C)C(=O)N[C@@H](CCCNC(=N)N)C(=O)N[C@@H](Cc1c[nH]cn1)C(=O)N[C@@H](C)C(=O)N[C@@H](C)C(=O)N[C@@H](CCC(N)=O)C(=O)N[C@H](C(=O)N[C@@H](CC(C)C)C(=O)N[C@@H](CCCCN)C(=O)O)[C@@H](C)O)C(C)C)[C@@H](C)CC)[C@@H](C)CC)[C@@H](C)CC` is reported as 85.9 µg·h²/mL (CD-1 ICR mouse, male, plasma; intravenous, 1 mg/kg).
Under “mean tissue distribution”, `CSCC[C@H](N)C(=O)N[C@@H](C)C(=O)N[C@@H](CCCNC(=N)N)C(=O)N[C@@H](CCCNC(=N)N)C(=O)N[C@@H](CC(=O)O)C(=O)N[C@@H](CCCCN)C(=O)N[C@H](C(=O)N[C@@H](CC(=O)O)C(=O)N[C@@H](Cc1ccccc1)C(=O)N[C@@H](C)C(=O)N[C@@H](CCCNC(=N)N)C(=O)N[C@@H](CCCNC(=N)N)C(=O)N[C@@H](CCCNC(=N)N)C(=O)N[C@@H](CCCNC(=N)N)C(=O)NCCCCCC(=O)NCCCCC(NC(=O)CCCCCNC(=O)[C@H](CCCNC(=N)N)NC(=O)[C@H](CCCNC(=N)N)NC(=O)[C@H](CCCNC(=N)N)NC(=O)[C@H](CCCNC(=N)N)NC(=O)[C@H](C)NC(=O)[C@H](Cc1ccccc1)NC(=O)[C@H](CC(=O)O)NC(=O)[C@@H](NC(=O)[C@H](CCCCN)NC(=O)[C@H](CC(=O)O)NC(=O)[C@H](CCCNC(=N)N)NC(=O)[C@H](CCCNC(=N)N)NC(=O)[C@H](C)NC(=O)[C@@H](N)CCSC)[C@@H](C)O)C(=O)NCCCCC(NC(=O)C(CCCCNC(=O)CCCCCNC(=O)[C@H](CCCNC(=N)N)NC(=O)[C@H](CCCNC(=N)N)NC(=O)[C@H](CCCNC(=N)N)NC(=O)[C@H](CCCNC(=N)N)NC(=O)[C@H](C)NC(=O)[C@H](Cc1ccccc1)NC(=O)[C@H](CC(=O)O)NC(=O)[C@@H](NC(=O)[C@H](CCCCN)NC(=O)[C@H](CC(=O)O)NC(=O)[C@H](CCCNC(=N)N)NC(=O)[C@H](CCCNC(=N)N)NC(=O)[C@H](C)NC(=O)[C@@H](N)CCSC)[C@@H](C)O)NC(=O)CCCCCNC(=O)[C@H](CCCNC(=N)N)NC(=O)[C@H](CCCNC(=N)N)NC(=O)[C@H](CCCNC(=N)N)NC(=O)[C@H](CCCNC(=N)N)NC(=O)[C@H](C)NC(=O)[C@H](Cc1ccccc1)NC(=O)[C@H](CC(=O)O)NC(=O)[C@@H](NC(=O)[C@H](CCCCN)NC(=O)[C@H](CC(=O)O)NC(=O)[C@H](CCCNC(=N)N)NC(=O)[C@H](CCCNC(=N)N)NC(=O)[C@H](C)NC(=O)[C@@H](N)CCSC)[C@@H](C)O)C(N)=O)[C@@H](C)O` (some centres unmarked) is recorded as 0.3% (C57BL/6 mouse female, ovary; dose not given, 6 h; baseline: total).
`O=C1NC2(CC2)COc2ncc(F)cc2[C@H]2COCCN2c2ccn3ncc1c3n2` — result for “mean corpuscular volume”: 55.1 ± 1.1 fL (Sprague-Dawley rat, male, blood; oral, 2.5 mg/kg/day, 4 weeks, end of recovery, subacute toxicity).
`C=CC(=O)Nc1cccc(Cn2ncc3cnc(Nc4cnn(CCOC)c4)nc32)c1`: “mean corpuscular haemoglobin” 21.6 ± 1.31 pg (Sprague-Dawley rat male, blood; oral, 180 mg/kg, day 28, 28-day subacute toxicity).
For `CCN1CC2(COC)C(O)CC(OC)C34C5CC6(O)C(OC)C(O)C(O)(C5C6OC(=O)c5ccccc5)C(C(OC)C23)C14` (centres unmarked), the MRT(0-t) was 5.19 ± 0.413 h (Sprague-Dawley rat, plasma; oral, dose not given, with NADES in PCW extract).
With `Cc1nnc(-c2ccc(CC(=O)NCCCC[C@H](NC(=O)c3ccc(OCc4ccc(B(O)O)cc4)c(-c4nc5ccccc5c(=O)[nH]4)c3)C(=O)NCC(=O)NCC(=O)NCC(=O)N[C@@H](Cc3ccccc3)C(=O)N[C@@H](Cc3ccccc3)C(=O)O)cc2)nn1` the remaining compound was 71.7% and 72.7% (UPLC-MS/MS; human serum; 100 µM, 4 h, 37 °C).
For `CC(=O)NCCCC[C@@H]1NC(=O)[C@H](Cc2c[nH]c3c(C)cccc23)NC(=O)[C@H]([C@@H](C)O)NC(=O)[C@H](CC(N)=O)NC(=O)[C@@H](NC(C)=O)C(C)(C)SSC(C)(C)[C@@H](C(=O)N[C@@H](Cc2ccc(OCCN)cc2)C(=O)N[C@@H](Cc2ccc3ccccc3c2)C(=O)NC2(C(=O)N[C@@H](CCC(=O)O)C(=O)N[C@@H](CC(N)=O)C(=O)N[C@@H](Cc3cccnc3)C(=O)N(C)CC(N)=O)CCOCC2)NC1=O`, “share of drug-related material” read 96.3% (metabolic profiling; Sprague Dawley rat, feces; oral, 300 mg/kg, 0 to 24 h).
`CC(C)[C@@H]1NC(=O)CNC(=O)[C@H](CC(N)=O)NC(=O)[C@H](CCCNC(=N)N)NC(=O)[C@H](Cc2ccc(O)cc2)NC(=O)[C@H](C(C)C)NC(=O)[C@@H](NC(=O)[C@@H](NC(=O)[C@H](CC(N)=O)NC(=O)[C@H](Cc2c[nH]c3ccccc23)NC(=O)[C@H](C)NC(=O)[C@H](Cc2ccccc2)NC(=O)CNC(=O)[C@H](CCCCN)NC(=O)[C@H](Cc2ccccc2)NC(=O)[C@H](Cc2ccccc2)NC(=O)[C@H](CCCCN)NC(=O)OCC2c3ccccc3-c3ccccc32)C(C)C)CSSC[C@@H](C(=O)N[C@@H](Cc2c[nH]cn2)C(=O)N[C@@H](CCCNC(=N)N)C(=O)N[C@@H](CCCNC(=N)N)C(=O)N[C@@H](C)C(=O)N[C@@H](CC(N)=O)C(N)=O)NC(=O)[C@H](C(C)C)NC(=O)[C@H](CCCNC(=N)N)NC1=O` gave a plateletcrit of 0.03% (ICR mice, blood; intraperitoneal, 10 mg/kg, day 5).

For quick reference, copied from above:
`C=CC(=O)Nc1cccc(Cn2ncc3cnc(Nc4cnn(CCOC)c4)nc32)c1`: “mean corpuscular haemoglobin” 21.6 ± 1.31 pg (Sprague-Dawley rat male, blood; oral, 180 mg/kg, day 28, 28-day subacute toxicity).
With `N#[11C]c1ccc(-c2csc(NN=C3CCCC3)n2)cc1` the radioactivity uptake was 1.15 ± 0.6 %ID/g (C57BL/6 mice, male, muscle; intravenous, 3 MBq, 30 min).
